{"data": "Measured values of several laboratories", "note": "Numbered parts are unrelated; each lists some results of a single study. Changes are numbered by the printed parent chain."}
{"data": "Sample 1", "target": "Histone acetyltransferase KAT6A, winged helix 2, GST fusion (KAT6A, Homo sapiens, UniProt Q92794, residues 85-181)", "method": "protein binding microarray", "molecule type": "double-stranded DNA, one strand shown", "matrix": "in vitro", "tested at": "not given", "notes": "8-mer, flanks averaged, mean of 2 arrays, mostly near background", "baseline": "not given", "reading": "higher = stronger binding", "Residues (chain)": "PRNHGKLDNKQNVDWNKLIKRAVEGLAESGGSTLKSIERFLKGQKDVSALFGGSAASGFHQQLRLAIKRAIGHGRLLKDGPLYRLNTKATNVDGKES"}
{"Sequence": "AAGCTGAG", "E-score": 0.0289}
{"Sequence": "CTTGAGGC", "E-score": 0.033}
{"Sequence": "ACAATCTG", "E-score": 0.0693}
{"Sequence": "AAAGCTAT", "E-score": -0.0213}
{"Sequence": "AAAACCTC", "E-score": 0.0798}
{"Sequence": "CGGCAGGA", "E-score": 0.101}
{"Sequence": "ATTCTACG", "E-score": -0.0143}
{"data": "Sample 2", "target": "RNA binding protein fox-1 homolog 2, RRM domain, GST-SBP tag (RBFOX2, Homo sapiens, UniProt O43251-10, residues 100-194)", "method": "RNA Bind-n-Seq", "molecule type": "RNA", "matrix": "in vitro", "tested at": "365 nM", "notes": "natural RNA segment, single round, ends assumed", "baseline": "no-protein control", "reading": "higher = stronger binding", "constant ends, left off below": "GGGAGUUCUACAGUCCGACGAUC … UGGAAUUCUCGGGUGCCAA", "Construct (chain)": "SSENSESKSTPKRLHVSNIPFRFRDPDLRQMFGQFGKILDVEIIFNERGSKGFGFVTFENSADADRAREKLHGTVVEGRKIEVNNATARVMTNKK"}
{"Sequence": "UAGCUUCUCCAAAGGCUCCCUGUGUUCUCACCGUGAUCAAGUUGAGGGGCUUCCGGCUCCCUUCUACAGCCUCAGAAACCAGACUCGUUCUUCUGGGAACCCUGCCCACU", "RBNS enrichment (R)": 0.326}
{"Sequence": "AAUUUCCACUUCACCAGCAAUAACAAUCAGAGGAGACUUGGCCCUCAGUCCUUGUAUUUCUCUUUUUCACUCUCUCUUCCACCCCAAGAUGGAAUCUUGGGGACAGGAGG", "RBNS enrichment (R)": 0.549}
{"Sequence": "CAUGAUAUAAAAAUAUAUGCUGAAUUACUUGUGAAGAAUGCAUUUAAAGCUAUUUUAAAUGUGUUUUUAUUUGUAAGACAUUACUUAUUAAGAAAUUGGUUAUUAUGCUU", "RBNS enrichment (R)": 0.379}
{"Sequence": "CAAGUGGUAAAGCACUUGGAUUCACCCCCAAUGACCACUCAGCACAAAAUGCAGAAAUUCCUUCUGAAGGACUAAAGCGACCAGCUGUCUGCCACACCUGCAGUAACACA", "RBNS enrichment (R)": 0.262}
{"Sequence": "UAAUAGUAUUGAAUGGGGUAUUUACUGUUGAUUAACCUCCUUAGAGAAAAUUAAUGAAUGAGAUGACUAACGGUAGAAAAGUUAUUGCCUAGGAGUGUGAGACUGAUGUU", "RBNS enrichment (R)": 5.08}
{"Sequence": "CUUCCUCCAGAAGCCUCCUUACAUUAAAAAGCCUUACAGUUAUCCUGCAAGGGACAGGAAGGUCUGAUUUGCAGGAUUUUUAGAGCAUUAAAAUAACUAUCAGGCAGAAG", "RBNS enrichment (R)": 0.346}
{"data": "Sample 3", "target": "CCNE2, cyclin fold, Cln2 fusion (human)", "method": "yeast growth competition, sequencing", "matrix": "yeast", "notes": "weak parent motif", "baseline": "not given", "reading": "higher = stronger binding", "parent": "SLBP docking peptide (human); ARYKRKLLINDFG; partner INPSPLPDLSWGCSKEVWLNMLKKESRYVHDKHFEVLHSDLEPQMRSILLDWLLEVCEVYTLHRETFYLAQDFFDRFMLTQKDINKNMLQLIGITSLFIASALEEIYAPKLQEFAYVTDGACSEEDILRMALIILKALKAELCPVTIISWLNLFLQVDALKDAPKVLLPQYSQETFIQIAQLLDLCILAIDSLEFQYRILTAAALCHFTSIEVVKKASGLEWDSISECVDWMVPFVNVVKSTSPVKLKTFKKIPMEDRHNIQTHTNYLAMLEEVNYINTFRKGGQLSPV"}
{"Change": "R5F", "normalised enrichment score": -0.254}
{"Change": "R5A", "normalised enrichment score": 0.382}
{"Change": "K6D", "normalised enrichment score": 0.254}
{"Change": "D11I", "normalised enrichment score": 0.939}
{"Change": "G13F", "normalised enrichment score": 0.893}
{"Change": "N10S", "normalised enrichment score": 0.48}
{"data": "Mixed results"}
{"Substance": "PhoQ, residues 284 288 289 292 302 303 NLGVHL", "target": "PhoP, residues 12 14 15 18 19 STWGI (Escherichia coli, UniProt P23836)", "test": "Sort-seq, item: YFP reporter", "system": "E. coli", "conditions": "PhoQ-PhoP variant library, added: 10 µM Mg2+", "how to read": "baseline: high Mg2+ state, higher = stronger signaling", "measurement": "fold induction", "value": 33.5}
{"note": "For quick reference, copied from above (sample 2):"}
{"Sequence": "UAGCUUCUCCAAAGGCUCCCUGUGUUCUCACCGUGAUCAAGUUGAGGGGCUUCCGGCUCCCUUCUACAGCCUCAGAAACCAGACUCGUUCUUCUGGGAACCCUGCCCACU", "RBNS enrichment (R)": 0.326}
